# Published values collected from several papers.
# Parts stem from different laboratories: compare values within a part only. Substitutions count along the parent as printed.

# Block 1 — technique: protein-binding microarray; form: double-stranded DNA, one strand shown; sample: in vitro; concentration: 250 nM; setting: 60-bp whole probe; together with: salmon DNA 0.4 mg/ml; baseline: random background probes; reading: higher = stronger binding; all sequences stand within: GCCTAGCAC … GTCTTGATTCGCTTGACGCTGCTG
# Target: Interferon regulatory factor 5, full length, phosphomimetic (IRF5, Homo sapiens, UniProt Q13568-2, residues 1-514, K96S/S451D/S453D/S456D/S462D)
Strand,log fluorescence
GACGGTTTCCTGTCCCTGACGTGCTAG,0.206 z-score
TTAGGGATCGGTTTCGGTTAGTGCTAG,8.8 z-score
GACGGTATCGGACTGGCGACGTGCTAG,0.98 z-score
TCAAAGATTTTTATCAAACTGTGCTAG,0.262 z-score
TTAGGTTTCGGGTGTCGGTTAGTGCTA,8.28 z-score
TTCATTTTCCAAATGCCCTCGTGCTAG,0.63 z-score
GACGATTTCAGTATTGAGACGTGCTAG,1.38 z-score
GACGAACTCAGTATCGAGACGTGCTAG,1.83 z-score
TTAGGCCTCCTACTGCTTTAGTGCTAG,-0.368 z-score
TCCATTTTCTGAATGCCTTGGTGCTAG,1.18 z-score
TTAGGACTGCTTTTCCTCTAGTGCTAG,0.0581 z-score
TTAGGACTGGGTCTAGGTTAGTGCTAG,-0.83 z-score
GACGGAATCGGGTTTCGGGACGTGCTA,2.69 z-score
TCGTGGATTGCGACCCCTAGGTGCTAG,-0.284 z-score
TTAGATCTCAGTCTCGATTCGTGCTAG,0.68 z-score
TCACCTTTTCTTTACTGACTGTGCTAG,0.789 z-score
TTAGGCTTCGACTATCGGTTAGTGCTA,6.18 z-score
TTAGGTCTCGGTTTCGGGTAGTGCTAG,5.88 z-score
TCACGTAAGCAAAAATGACTGTGCTAG,0.192 z-score
GACGGTTTAGGGACTGGGGACGTGCTA,0.102 z-score
TTAGGTATCGGGTCTGGGTTAGTGCTA,2.96 z-score
GACGATATCAGACTTGAGACGTGCTAG,0.234 z-score
TTAGGACCGGGGACTGGGTTAGTGCTA,-0.876 z-score
GACGATTTCAGACGGGAGACGTGCTAG,0.0797 z-score
CCCAATCTCTCTTCACATATGTGCTAG,0.38 z-score

# Block 2 — technique: protein binding microarray; form: double-stranded DNA, one strand shown; sample: in vitro; concentration: not given; baseline: not given; reading: higher = stronger binding
# Target: Histone acetyltransferase KAT6A, winged helix 1, GST fusion (KAT6A, Homo sapiens, UniProt Q92794, residues 1-85)
# Setting: 8-mer, flanks averaged, mean of 2 arrays, mostly near background
# Target sequence (chain): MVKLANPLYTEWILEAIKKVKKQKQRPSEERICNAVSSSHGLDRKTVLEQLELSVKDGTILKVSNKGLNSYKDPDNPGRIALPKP
Strand,E-score
AATGTCTG,-0.175
TGGAGAAA,-0.0763
AGATCGTA,-0.158
AACTTCTT,-0.234
CAGGACTG,-0.114
TCGCTTCA,-0.00377
AAATTAGA,-0.136
ACATGCGG,0.262
GATACCAC,-0.0533
AACGTGAG,-0.143
CGTGAACG,0.0717
CTTCATAC,-0.0926
GCAAGCGA,0.0992
ACCGCTTA,0.171
CCCTGGAG,-0.243
CGATACTC,0.0558
CATTAACA,-0.202
ACTCCTCT,-0.153
AGCAATCA,-0.236
AGTTAGCC,0.0553
CAACCACG,0.0139
CTACTTCC,-0.0802
TAAACCAA,-0.112
CAGCATAA,-0.171
GTAAGGTA,-0.129

# Block 3 — technique: DHFR PCA, deep sequencing; sample: yeast; together with: (+)-ABA 1.4 µM; baseline: wild-type fitted maximum; reading: higher = stronger binding
# Target: ABI1, truncated, D143A, DHFR fusion (Arabidopsis thaliana)
# Setting: methotrexate growth selection, single substitutions
# Starting sequence: PYL1, truncated, DHFR fusion (Arabidopsis thaliana); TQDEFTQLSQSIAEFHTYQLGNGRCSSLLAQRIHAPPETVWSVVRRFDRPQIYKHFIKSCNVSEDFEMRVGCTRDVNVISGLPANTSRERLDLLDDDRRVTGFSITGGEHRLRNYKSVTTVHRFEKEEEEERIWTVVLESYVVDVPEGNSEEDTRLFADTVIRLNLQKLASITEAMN
Change,relative binding score
G148W,-3.18%
V62L,48%
L94W,31.4%
S104G,-1.87%
I162A,10.3%
V40R,6.26%
T101M,70.6%
N77F,59%
E67P,29.4%
A35V,9.84%
H34I,25.8%
C72I,33.6%
T173R,0.289%
K54T,-4.61%
A175V,29.2%
I133S,69.7%
L166Y,-9.96%
E127Q,68.4%
G108M,-4.77%
Q167T,49.4%
T120L,-2.43%
E109P,-10.8%

# Block 4 — technique: protein-binding microarray; form: double-stranded DNA, one strand shown; sample: in vitro; concentration: not given; reading: higher = stronger binding
# Target: Protein C-ets-1 (ETS1, Homo sapiens, UniProt P14921, residues 1-441, full length assumed)
# Setting: k-mer, scored over probes, only values ≥0.25
# Target sequence (chain): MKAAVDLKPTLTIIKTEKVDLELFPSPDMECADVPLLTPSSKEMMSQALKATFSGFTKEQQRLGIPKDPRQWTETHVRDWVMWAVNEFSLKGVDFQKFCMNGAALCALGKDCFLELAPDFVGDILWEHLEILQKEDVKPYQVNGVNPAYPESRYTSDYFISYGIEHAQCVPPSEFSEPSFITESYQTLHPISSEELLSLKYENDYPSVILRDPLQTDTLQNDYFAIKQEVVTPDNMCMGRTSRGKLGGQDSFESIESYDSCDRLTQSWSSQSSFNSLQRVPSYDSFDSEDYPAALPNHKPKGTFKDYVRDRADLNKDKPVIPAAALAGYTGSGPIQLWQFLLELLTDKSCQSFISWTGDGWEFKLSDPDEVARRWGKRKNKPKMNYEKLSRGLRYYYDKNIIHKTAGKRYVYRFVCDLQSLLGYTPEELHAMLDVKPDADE
Strand,E-score
CAGCGGAA,0.451
CGTTTTCC,0.294
AGGATAGC,0.256
CCCACCCC,0.312
AGACCGGA,0.46
ACCGGGAC,0.273
AGAGGAAG,0.431
AGTACCGG,0.307
ATATTCCG,0.279
GGGTGGGA,0.295
CGGACGTC,0.424
AGGAGGAA,0.347
CCGCATCC,0.416
AGGAACTA,0.285
AGTCATCC,0.251
CGGATAGA,0.317
GACCGGAC,0.452
ACTTTCCT,0.261
AGCGGGGA,0.287

# Block 5 — technique: RNA Bind-n-Seq; form: RNA; sample: in vitro; concentration: 20 nM; setting: 6-mer, flanks averaged, single round; together with: 150 mM KCl; baseline: input library; reading: higher = stronger binding
# Target: TAR DNA-binding protein 43, full length, His tag (TARDBP, Homo sapiens, UniProt Q13148, residues 1-414)
Strand,6-mer enrichment (R)
CGCGAA,0.844
CGAUUC,0.563
CCACAC,0.645
AUCGGG,1.78
CGUACU,0.585
AGCCCA,0.671
ACAUGG,1.02
UAUGUU,0.774
GCAGUG,1.63
GAUAGU,0.824
AUUCUG,0.602
CUUCUU,0.586
CCAGCG,1.09
ACGGAC,0.924
GGUAAU,0.906
CGUGAC,0.796

# Block 6 — technique: universal PBM; form: double-stranded DNA, one strand shown; sample: in vitro; concentration: not given; reading: higher = stronger binding
# Target: Sal-like protein 4, full length isoform B (SALL4, Homo sapiens, UniProt Q9UJQ4-2, residues 1-616)
# Setting: 8-mer, flanks averaged, mean of replicates
# Target sequence (chain): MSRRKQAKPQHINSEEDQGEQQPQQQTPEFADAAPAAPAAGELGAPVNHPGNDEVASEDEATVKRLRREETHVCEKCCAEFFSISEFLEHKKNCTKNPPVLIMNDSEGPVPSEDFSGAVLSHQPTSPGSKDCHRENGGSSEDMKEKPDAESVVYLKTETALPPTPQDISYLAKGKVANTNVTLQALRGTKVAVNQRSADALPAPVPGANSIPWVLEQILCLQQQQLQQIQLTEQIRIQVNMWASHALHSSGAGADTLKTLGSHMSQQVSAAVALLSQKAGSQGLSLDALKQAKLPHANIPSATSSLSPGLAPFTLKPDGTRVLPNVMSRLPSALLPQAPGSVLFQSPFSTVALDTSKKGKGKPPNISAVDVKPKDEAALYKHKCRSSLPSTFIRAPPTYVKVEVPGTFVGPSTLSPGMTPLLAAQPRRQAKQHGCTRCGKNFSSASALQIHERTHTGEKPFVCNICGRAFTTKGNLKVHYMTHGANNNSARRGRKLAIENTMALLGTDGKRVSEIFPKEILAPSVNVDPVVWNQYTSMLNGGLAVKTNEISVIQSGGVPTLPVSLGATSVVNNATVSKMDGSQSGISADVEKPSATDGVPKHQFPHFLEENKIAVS
Strand,E-score
TCAGAAGA,-0.0994
CCCTAAGA,-0.24
AAGAATGG,0.0036
AAGGGTGA,-0.00232
CGGGGCAG,-0.339
GCTCACAA,-0.0505
ACTATGAT,0.161
AATGGAGC,-0.0456
CATCTTGG,0.0561
CAGCAGGC,-0.232
CCGAGCGG,-0.357
CCGTCATA,0.219
GATGGCAA,0.0979
CGGTTCCC,-0.226
GACGCATC,-0.0732
GTCTATAA,0.322
CAGATGTC,-0.0443
GTGCGGTA,-0.171
TCTGCGAA,-0.0551
AATCCTAC,-0.0872
ACTGATTA,0.219
CTTCGCTC,-0.181
AGAGCTAG,-0.0975
CAGGAGCA,-0.22

# A few entries again (block 2):
Strand,E-score
TGGAGAAA,-0.0763
CAACCACG,0.0139
AGATCGTA,-0.158
CAGCATAA,-0.171
CGTGAACG,0.0717
AGCAATCA,-0.236
GATACCAC,-0.0533
ACATGCGG,0.262
AGTTAGCC,0.0553
